Results from different studies.
Numbered parts are unrelated; each lists some results of a single study. Values joined by “and” are separate records of one study, mostly repeats; a detail may differ.
Sequence of UniProt P10721 (whole entry, unmodified, looked up): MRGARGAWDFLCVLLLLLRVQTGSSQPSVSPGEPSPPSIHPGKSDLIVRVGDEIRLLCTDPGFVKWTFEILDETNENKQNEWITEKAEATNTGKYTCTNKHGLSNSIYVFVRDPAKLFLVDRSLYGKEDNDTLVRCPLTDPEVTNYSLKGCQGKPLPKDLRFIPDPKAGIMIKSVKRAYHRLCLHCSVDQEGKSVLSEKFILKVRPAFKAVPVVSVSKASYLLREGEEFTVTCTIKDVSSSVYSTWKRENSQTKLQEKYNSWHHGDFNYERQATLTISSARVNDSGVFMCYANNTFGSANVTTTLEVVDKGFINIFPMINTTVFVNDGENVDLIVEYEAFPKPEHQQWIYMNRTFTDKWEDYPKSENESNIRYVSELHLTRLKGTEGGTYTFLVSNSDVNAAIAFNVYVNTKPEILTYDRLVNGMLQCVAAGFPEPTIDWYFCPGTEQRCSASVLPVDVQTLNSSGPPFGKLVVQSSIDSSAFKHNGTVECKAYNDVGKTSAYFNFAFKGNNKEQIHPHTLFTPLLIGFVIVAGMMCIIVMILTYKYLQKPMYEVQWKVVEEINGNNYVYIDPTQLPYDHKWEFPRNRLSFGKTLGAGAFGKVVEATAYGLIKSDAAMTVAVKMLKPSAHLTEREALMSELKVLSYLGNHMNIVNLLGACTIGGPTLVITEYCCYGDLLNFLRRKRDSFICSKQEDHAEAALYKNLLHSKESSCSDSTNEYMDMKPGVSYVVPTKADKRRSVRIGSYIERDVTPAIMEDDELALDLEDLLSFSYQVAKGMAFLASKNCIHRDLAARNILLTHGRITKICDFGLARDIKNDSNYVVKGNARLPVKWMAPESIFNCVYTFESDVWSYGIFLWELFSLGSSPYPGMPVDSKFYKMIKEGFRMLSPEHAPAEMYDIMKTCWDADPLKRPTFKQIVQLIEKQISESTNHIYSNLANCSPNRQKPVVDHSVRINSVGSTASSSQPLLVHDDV
Sequence of UniProt Q9NRM7 (whole entry, looked up): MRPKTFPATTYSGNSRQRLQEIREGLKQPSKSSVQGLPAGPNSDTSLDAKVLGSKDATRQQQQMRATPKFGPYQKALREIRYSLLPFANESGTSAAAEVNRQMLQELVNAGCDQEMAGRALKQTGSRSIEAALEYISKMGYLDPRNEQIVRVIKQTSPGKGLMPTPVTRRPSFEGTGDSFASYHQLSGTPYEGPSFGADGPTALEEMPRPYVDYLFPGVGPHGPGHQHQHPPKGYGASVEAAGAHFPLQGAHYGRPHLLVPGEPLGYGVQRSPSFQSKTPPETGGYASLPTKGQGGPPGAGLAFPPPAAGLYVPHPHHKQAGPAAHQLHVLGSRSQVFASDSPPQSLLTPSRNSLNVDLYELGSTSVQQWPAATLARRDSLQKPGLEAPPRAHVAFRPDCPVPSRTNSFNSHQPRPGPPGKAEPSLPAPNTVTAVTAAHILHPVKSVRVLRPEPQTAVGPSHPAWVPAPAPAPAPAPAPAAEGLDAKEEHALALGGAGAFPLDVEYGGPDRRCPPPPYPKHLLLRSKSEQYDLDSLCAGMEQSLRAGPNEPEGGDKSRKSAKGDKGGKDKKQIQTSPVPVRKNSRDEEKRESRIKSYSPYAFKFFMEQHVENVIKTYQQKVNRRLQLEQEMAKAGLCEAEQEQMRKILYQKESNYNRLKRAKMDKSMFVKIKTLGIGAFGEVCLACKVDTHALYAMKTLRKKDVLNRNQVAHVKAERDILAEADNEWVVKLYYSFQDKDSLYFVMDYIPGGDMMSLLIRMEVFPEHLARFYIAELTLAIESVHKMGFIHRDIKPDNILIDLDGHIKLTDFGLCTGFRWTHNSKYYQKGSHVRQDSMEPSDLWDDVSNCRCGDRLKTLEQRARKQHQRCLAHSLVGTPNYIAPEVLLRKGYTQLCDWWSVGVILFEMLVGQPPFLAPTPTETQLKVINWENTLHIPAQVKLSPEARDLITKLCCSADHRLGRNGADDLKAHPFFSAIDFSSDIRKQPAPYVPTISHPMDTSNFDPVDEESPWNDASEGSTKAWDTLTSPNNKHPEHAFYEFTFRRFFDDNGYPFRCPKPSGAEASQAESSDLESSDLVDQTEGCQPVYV
Sequence of UniProt Q13043 (whole entry, looked up): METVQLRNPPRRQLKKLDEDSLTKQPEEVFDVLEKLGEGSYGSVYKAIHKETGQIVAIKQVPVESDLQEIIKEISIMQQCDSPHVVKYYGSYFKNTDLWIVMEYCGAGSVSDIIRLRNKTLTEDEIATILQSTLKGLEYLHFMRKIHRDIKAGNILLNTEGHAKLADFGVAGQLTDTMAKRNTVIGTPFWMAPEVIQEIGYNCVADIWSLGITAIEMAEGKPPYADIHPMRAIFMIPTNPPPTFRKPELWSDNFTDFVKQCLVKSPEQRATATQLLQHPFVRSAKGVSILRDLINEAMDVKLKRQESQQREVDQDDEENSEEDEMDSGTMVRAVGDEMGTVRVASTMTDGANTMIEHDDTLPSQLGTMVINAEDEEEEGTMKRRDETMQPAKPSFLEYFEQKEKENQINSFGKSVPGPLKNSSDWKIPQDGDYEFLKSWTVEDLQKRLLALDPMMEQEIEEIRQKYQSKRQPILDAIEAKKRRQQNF
Sequence of UniProt P54756 (whole entry, looked up): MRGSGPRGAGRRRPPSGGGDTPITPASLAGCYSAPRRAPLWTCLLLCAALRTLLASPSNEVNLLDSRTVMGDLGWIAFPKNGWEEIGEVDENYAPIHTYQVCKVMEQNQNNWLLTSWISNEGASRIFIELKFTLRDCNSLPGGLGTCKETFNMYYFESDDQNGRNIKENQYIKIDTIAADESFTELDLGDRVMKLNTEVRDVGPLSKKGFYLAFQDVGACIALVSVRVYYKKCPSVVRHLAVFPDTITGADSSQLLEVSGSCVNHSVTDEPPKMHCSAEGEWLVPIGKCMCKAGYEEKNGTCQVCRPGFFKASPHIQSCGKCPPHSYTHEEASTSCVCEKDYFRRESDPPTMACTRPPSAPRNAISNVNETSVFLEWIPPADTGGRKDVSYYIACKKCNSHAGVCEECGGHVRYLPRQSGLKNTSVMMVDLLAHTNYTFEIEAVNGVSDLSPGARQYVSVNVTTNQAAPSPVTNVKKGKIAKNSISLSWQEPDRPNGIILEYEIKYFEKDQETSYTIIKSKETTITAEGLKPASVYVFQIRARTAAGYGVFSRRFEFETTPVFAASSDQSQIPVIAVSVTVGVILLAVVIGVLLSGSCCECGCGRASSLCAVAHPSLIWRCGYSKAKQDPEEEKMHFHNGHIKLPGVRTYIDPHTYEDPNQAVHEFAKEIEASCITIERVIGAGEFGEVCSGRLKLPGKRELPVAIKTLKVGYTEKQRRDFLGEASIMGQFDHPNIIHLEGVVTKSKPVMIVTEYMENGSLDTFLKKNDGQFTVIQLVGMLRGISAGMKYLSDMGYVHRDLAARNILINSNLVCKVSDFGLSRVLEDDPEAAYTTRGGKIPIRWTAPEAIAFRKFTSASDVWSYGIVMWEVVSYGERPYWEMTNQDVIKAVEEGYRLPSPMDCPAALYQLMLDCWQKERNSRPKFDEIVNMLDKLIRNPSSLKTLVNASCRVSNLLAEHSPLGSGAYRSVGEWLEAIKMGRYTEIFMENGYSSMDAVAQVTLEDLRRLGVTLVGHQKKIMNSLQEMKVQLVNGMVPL
Sequence of UniProt Q6ZWH5 (whole entry, looked up): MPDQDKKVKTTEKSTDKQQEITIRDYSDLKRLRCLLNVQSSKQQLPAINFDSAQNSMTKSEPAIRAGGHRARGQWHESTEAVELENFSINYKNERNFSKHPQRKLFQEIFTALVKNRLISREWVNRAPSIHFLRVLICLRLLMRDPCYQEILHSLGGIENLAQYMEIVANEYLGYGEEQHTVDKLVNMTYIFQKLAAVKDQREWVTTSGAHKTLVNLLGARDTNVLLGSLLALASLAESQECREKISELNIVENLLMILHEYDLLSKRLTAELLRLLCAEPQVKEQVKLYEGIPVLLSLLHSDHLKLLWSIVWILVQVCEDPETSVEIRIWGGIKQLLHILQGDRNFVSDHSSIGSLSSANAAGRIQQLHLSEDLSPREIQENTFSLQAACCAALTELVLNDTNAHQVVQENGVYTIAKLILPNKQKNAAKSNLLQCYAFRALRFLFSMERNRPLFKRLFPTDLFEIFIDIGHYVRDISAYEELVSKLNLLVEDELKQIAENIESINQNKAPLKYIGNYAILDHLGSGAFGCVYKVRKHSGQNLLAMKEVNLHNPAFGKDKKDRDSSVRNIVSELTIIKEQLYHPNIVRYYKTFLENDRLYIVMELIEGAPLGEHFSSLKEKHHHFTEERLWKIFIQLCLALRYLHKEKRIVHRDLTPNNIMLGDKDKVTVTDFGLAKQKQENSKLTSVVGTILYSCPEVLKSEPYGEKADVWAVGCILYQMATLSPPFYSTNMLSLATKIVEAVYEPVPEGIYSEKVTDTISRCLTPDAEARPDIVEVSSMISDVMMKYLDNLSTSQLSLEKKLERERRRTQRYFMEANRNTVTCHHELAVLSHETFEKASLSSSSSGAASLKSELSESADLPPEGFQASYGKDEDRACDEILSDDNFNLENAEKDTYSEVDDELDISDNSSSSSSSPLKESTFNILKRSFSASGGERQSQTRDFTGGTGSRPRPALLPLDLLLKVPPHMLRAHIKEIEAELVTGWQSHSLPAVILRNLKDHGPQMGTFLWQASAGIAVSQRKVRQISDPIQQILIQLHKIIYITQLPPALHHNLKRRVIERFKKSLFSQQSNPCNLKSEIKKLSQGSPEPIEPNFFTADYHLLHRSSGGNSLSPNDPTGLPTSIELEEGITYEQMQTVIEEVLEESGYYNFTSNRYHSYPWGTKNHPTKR

Series 1
Compound: CC(C)(C)c1cnc(CSc2cnc(NC(=O)C3CCN(CCCCCCCCSc4cccc5c4C(=O)N(C4CCC(=O)NC4=O)C5=O)CC3)s2)o1 (centres unmarked)
Cell line: HH
Technique: CCK-8
concentration | viability
200 nM | 6.87% and 6.41%
150 nM | 10.5% and 20%
500 nM | 0%
1 nM | 100%

Series 2
SMILES: Cc1c(NC(=O)c2cc(C(N)=O)nc3cc(F)ccc23)c(C(F)(F)F)nn1Cc1ccc(C#N)cc1
Effect on: cell-free assay
Technique: competition with immobilised ligand
Concentration: 1 µM
target | remaining binding
KIT (Homo sapiens, UniProt P10721) | 95%
TAOK1 (Homo sapiens, UniProt Q7L7X3) | 93%
LATS2 (Homo sapiens, UniProt Q9NRM7) | 72%
KIT (Homo sapiens, UniProt P10721, L576P) | 92%
STK4 (Homo sapiens, UniProt Q13043) | 84%
PIKFYVE (Homo sapiens, UniProt Q9Y2I7) | 92%
EPHA5 (Homo sapiens, UniProt P54756) | 100%
KIT (Homo sapiens, UniProt P10721, D816V) | 88%
NEK10 (Homo sapiens, UniProt Q6ZWH5) | 83%
KIT (Homo sapiens, UniProt P10721, A829P) | 64%
PIK3C2B (Homo sapiens, UniProt O00750) | 81%
Tyrosine-protein kinase ABL1, non-phosphorylated (ABL1, Homo sapiens, UniProt P00519) | 84%
KIT (Homo sapiens, UniProt P10721, T670I/V559D) | 89%

Series 3
Cell line: mouse MPNST tumor cells
Technique: high-content immunofluorescence imaging
Item: nuclear SOX9
Concentration: 10 µM
Time: 12 h
Setting: mean of 2 replicates
Relative to: DMSO control
Direction: higher = more nuclear SOX9
SMILES | nuclear SOX9 intensity
Nc1nc2c(c(N3CCNCC3)n1)CCC1=C2C2CCCCC2O1 (centres unmarked) | 146 % of DMSO
Cc1c(Nc2ncccc2C(=O)O)cccc1C(F)(F)F | 101 % of DMSO
CC(=O)NCCNc1cc(Cl)nn2c(-c3cccc(S(=O)(=O)N(C)C)c3)c(C)nc12 | 204 % of DMSO
CCOC(=O)Nc1cc(-c2ccc(C)c(NS(C)(=O)=O)c2)nn2c(C)nnc12 | 248 % of DMSO

Series 4
Species: human
Sample: microsomes or S9
Concentration: 2 µM
Time: 0.5 h
Structure (SMILES) | remaining compound
O=C(C1CCC1)N1CCCC1c1nc(C2CCOCC2)no1 (centres unmarked) | 23.9%
CN1CCN(c2nc(O)c3c(-c4ccsc4)ccnc3n2)CC1 | 71.4%
Nc1ccc2oc(=O)c3c(c2c1)CC(C(F)(F)F)S3 (centres unmarked) | 70.1%
O=C(C(Nc1ccc(N2CCCS2(=O)=O)cc1)c1ccccc1)N1CCCC1 (centres unmarked) | 81.4%

Other studies, line by line
Structure (SMILES) | assay | system | conditions | quantity | value
CCCN1C(=O)[C@H](CC(C)C)NC(=O)[C@@H](N(C)C(=O)[C@H](CC2CCC2)NC(=O)[C@@H]2C[C@@H](F)CN2C(=O)[C@@](C)(O)C(F)(F)F)CCCCNC(=O)C2(CC2)NC(=O)[C@@H]1Cc1cc(Cl)ccc1Cl | immunohistochemistry | mice, NCI-H69 xenograft, tumour | intravenous, 100 mg/kg once daily, 18 h | cleaved caspase-3 positive cells | 54.1% and 52.3% and 55.8%

Repeated from above (other studies, line by line):
Structure (SMILES) | assay | system | conditions | quantity | value
CCCN1C(=O)[C@H](CC(C)C)NC(=O)[C@@H](N(C)C(=O)[C@H](CC2CCC2)NC(=O)[C@@H]2C[C@@H](F)CN2C(=O)[C@@](C)(O)C(F)(F)F)CCCCNC(=O)C2(CC2)NC(=O)[C@@H]1Cc1cc(Cl)ccc1Cl | immunohistochemistry | mice, NCI-H69 xenograft, tumour | intravenous, 100 mg/kg once daily, 18 h | cleaved caspase-3 positive cells | 54.1% and 52.3% and 55.8%
